# Experimental data pooled from the literature.
# Each line is one published result; not all experiments were run side by side. ± marks the error that the study gave.
# HDAC8: Histone deacetylase 8 (HDAC8, Homo sapiens, UniProt Q9BY41)
# UniProt Q9BY41, sequence (whole entry, looked up): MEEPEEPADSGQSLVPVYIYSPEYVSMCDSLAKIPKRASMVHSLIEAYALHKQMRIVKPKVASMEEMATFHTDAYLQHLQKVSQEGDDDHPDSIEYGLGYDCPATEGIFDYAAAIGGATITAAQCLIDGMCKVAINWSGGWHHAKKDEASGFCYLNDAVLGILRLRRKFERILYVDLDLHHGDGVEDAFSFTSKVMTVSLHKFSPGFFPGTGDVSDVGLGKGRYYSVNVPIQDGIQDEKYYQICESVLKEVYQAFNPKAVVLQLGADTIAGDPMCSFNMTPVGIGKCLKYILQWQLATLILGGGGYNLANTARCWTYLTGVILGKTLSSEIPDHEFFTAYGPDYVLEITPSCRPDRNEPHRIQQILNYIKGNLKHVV
# histidine kinase ComD: histidine kinase ComD (Streptococcus pneumoniae serotype 4, UniProt A0A0H2US84)
# CES2: Cocaine esterase (CES2, Homo sapiens, UniProt O00748)
# UniProt O00748, sequence (whole entry, looked up): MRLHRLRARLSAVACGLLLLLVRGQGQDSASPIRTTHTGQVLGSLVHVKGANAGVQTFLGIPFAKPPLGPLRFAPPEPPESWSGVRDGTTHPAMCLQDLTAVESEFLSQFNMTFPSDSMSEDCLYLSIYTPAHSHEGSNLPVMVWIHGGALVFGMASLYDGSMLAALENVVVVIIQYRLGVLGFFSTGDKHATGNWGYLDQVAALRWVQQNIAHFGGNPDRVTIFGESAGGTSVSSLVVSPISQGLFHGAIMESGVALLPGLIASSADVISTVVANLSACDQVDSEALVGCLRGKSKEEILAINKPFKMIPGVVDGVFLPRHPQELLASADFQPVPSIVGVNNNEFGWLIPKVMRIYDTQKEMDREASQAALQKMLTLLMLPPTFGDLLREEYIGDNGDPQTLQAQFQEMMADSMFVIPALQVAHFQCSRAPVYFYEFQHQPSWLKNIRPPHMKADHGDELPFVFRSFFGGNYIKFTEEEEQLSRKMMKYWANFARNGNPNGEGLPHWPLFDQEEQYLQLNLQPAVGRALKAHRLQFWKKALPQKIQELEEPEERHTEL
# CPL: CPL (Toxoplasma gondii, UniProt Q6DMN0)
# PTGS1: Prostaglandin G/H synthase 1 (PTGS1, Ovis aries, UniProt P05979)
# UniProt P05979, sequence (whole entry, looked up): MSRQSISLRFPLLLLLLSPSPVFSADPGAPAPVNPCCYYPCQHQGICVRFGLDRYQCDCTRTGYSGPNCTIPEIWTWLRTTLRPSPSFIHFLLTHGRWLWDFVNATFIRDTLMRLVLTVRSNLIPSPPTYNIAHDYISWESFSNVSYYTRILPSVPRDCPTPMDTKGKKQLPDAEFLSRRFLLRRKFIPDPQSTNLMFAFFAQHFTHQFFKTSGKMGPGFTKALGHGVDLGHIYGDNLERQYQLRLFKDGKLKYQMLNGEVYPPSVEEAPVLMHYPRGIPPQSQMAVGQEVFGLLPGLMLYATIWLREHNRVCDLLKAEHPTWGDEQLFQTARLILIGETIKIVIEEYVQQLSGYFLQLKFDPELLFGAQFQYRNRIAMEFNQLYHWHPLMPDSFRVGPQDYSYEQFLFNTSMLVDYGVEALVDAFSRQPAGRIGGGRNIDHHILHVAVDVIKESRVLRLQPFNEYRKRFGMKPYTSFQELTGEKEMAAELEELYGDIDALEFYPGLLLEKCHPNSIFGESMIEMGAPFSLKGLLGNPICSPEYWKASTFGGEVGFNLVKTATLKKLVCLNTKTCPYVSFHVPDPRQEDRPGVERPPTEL
# UniProt Q9UM73, sequence (whole entry, unmodified, looked up): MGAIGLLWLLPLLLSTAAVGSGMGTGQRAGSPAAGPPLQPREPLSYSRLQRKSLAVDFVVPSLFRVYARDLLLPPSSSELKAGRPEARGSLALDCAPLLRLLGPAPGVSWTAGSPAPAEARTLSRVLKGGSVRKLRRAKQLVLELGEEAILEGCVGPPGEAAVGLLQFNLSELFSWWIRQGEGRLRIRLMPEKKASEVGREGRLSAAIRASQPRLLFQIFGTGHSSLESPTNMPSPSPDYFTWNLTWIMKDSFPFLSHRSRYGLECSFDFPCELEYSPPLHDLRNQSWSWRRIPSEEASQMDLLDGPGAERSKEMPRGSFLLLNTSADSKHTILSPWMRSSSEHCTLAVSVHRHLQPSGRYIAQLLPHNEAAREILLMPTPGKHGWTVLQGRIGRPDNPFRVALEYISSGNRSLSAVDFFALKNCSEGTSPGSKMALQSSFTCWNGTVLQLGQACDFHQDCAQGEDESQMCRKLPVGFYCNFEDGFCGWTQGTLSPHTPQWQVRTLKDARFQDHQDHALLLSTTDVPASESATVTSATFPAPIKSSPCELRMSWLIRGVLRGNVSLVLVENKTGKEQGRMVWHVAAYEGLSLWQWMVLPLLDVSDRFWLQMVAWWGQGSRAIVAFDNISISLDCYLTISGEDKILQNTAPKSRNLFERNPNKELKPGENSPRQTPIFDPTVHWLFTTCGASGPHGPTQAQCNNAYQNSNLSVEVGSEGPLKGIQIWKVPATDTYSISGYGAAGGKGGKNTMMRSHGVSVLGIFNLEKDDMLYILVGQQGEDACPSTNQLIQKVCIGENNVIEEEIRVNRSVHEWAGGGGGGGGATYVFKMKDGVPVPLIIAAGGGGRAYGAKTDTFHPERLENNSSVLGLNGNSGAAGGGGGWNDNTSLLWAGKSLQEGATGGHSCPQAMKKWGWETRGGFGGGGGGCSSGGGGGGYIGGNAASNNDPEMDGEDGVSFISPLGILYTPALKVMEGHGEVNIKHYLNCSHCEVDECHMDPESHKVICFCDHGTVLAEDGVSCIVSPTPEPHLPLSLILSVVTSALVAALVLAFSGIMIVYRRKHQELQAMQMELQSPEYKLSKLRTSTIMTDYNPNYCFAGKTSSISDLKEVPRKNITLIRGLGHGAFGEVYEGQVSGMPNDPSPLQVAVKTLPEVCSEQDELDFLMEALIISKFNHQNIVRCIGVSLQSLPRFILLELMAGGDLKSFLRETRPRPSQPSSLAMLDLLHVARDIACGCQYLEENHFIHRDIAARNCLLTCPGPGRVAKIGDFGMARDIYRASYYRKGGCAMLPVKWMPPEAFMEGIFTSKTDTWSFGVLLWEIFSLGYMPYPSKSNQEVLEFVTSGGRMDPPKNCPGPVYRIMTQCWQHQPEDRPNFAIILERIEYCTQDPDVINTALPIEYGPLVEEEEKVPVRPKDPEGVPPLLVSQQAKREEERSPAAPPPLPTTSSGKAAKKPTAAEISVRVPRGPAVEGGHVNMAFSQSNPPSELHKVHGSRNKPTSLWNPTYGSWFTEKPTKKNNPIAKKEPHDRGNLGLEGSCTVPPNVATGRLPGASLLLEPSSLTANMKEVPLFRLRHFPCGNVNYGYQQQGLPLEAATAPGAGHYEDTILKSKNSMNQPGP
# UniProt Q96P56, sequence (whole entry, looked up): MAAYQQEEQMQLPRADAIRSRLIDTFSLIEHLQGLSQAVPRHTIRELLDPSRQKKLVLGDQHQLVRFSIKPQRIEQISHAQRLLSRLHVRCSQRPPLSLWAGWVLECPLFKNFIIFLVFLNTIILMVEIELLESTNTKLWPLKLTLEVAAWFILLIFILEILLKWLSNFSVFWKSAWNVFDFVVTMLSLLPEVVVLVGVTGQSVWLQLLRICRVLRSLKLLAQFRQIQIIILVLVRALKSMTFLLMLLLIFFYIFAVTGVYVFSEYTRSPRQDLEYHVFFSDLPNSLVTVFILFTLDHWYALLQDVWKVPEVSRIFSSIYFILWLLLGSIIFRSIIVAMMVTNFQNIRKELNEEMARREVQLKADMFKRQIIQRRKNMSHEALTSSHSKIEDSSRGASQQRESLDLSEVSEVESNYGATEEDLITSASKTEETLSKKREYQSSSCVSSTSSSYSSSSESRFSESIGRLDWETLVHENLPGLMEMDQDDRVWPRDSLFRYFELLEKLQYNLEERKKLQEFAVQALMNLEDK
# UniProt P10275, sequence (whole entry, looked up): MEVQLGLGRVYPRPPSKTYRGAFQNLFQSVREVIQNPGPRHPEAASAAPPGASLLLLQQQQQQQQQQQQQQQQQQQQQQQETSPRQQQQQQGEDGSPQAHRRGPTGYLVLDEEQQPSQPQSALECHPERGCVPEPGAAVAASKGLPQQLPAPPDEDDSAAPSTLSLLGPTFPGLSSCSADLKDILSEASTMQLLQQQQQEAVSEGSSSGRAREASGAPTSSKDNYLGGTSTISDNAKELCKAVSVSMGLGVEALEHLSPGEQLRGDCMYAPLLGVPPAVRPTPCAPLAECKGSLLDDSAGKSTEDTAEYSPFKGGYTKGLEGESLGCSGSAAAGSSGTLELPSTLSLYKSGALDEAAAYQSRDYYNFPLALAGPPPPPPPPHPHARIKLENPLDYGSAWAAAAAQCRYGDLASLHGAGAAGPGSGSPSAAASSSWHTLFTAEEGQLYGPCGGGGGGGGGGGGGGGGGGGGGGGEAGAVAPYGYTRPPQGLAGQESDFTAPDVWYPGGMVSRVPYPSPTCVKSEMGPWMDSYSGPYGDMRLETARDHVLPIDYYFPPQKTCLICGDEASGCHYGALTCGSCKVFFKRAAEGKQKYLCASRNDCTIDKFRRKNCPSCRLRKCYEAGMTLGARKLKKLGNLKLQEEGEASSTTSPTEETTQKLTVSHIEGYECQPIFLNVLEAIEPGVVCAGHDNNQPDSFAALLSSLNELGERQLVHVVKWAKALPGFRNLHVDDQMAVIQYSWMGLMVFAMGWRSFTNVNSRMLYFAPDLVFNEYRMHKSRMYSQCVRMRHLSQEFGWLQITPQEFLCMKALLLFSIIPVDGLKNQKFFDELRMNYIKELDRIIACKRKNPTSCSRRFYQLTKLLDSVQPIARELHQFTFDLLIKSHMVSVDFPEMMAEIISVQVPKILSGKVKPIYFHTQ
# UniProt Q86XQ3, sequence (whole entry, looked up): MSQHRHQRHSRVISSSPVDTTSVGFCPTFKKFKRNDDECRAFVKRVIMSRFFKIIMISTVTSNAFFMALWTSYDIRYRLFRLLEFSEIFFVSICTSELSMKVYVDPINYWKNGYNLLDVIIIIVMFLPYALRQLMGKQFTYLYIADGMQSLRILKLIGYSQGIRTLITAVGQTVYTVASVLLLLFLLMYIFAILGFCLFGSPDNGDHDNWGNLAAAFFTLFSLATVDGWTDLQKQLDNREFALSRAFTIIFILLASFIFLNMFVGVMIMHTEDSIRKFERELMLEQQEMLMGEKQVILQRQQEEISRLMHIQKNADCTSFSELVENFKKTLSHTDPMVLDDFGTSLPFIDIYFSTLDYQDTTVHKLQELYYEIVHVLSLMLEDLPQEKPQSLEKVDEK
Compound,target,test,test system,conditions,IC50 [nM]
CN(C)c1ccc(NC(=O)CCCCCNC(=O)CS)cc1,HDAC8,"enzyme activity, inhibitor",,,15600
CC[C@H](C)[C@H](NC(=O)[C@H](CC(N)=O)NC(=O)[C@H](Cc1c[nH]cn1)NC(=O)[C@@H](NC(=O)[C@H](CCC(N)=O)NC(=O)[C@H](CCCNC(=N)N)NC(=O)[C@H](CCSC)NC(=O)[C@H](C)N)[C@@H](C)O)C(=O)N[C@@H](Cc1ccccc1)C(=O)N[C@@H](Cc1ccccc1)C(=O)N[C@@H](CC(N)=O)C(=O)N[C@@H](CC(C)C)C(=O)N[C@@H](Cc1ccccc1)C(=O)N[C@@H](CCCCN)C(=O)N[C@@H](CCCNC(=N)N)C(=O)N[C@@H](CCCNC(=N)N)C(=O)O,histidine kinase ComD,"reporter gene, antagonist","Streptococcus pneumoniae, TIGR4 comX::lacZ","30 min, 37 °C, with: CSP2 250 nM",> 10000
CC(C)=CCCC(C)=CCCC(C)=CCc1c(O)cc(O)c(CC=C(C)C)c1-c1cc2ccc(O)cc2o1,"GSK3B (Homo sapiens, UniProt P49841)","enzyme activity, inhibitor",,,7570
Nc1ncnc2c1ncn2[C@@H]1O[C@H](CSCCNC(=O)NCCc2ccccc2)[C@@H](O)[C@H]1O,"DOT1L (Homo sapiens, UniProt Q8TEK3)","enzyme activity, inhibitor, radiometric",,,7000
CCN(C)C(=O)Oc1ccccc1/C=C1\Cc2cc(OC)c(OC)cc2C1=O,CES2,"enzyme activity, inhibitor",,"3 min preincubation, with: fluorescein diacetate",3.67 ± 0.23
O=C(CCCCCCC(=O)Nc1ccc(N=Nc2ccccc2)cc1)NO,"HDAC3 (Homo sapiens, UniProt O15379)","enzyme activity, inhibitor",,trans isomer,144 ± 52
C#CCSc1nc(Sc2nnnn2-c2ccccc2)c2nnn(Cc3ccccc3)c2n1,"KDM1A (Homo sapiens, UniProt O60341)","enzyme activity, inhibitor, fluorescence",,,150
O=C(O)c1ccccc1Nc1ccc(Oc2ccc([N+](=O)[O-])cc2)cc1,"Androgen receptor (AR, Homo sapiens, UniProt P10275)","reporter gene, antagonist, MMTV-Luc reporter",MDA-kb2,"20 h, with: 8 nM DHT (EC90)",38600 ± 4700
C#Cc1ccc(N2CCNCC2)cc1,"Endothiapepsin (EAPA, Cryphonectria parasitica, UniProt P11838)","enzyme activity, inhibitor, fluorescence",,,142000
N#CC(C#N)C(c1ccc(Cl)cc1)c1c[nH]c2ccccc12 (centres unmarked),CES2,"enzyme activity, inhibitor",human liver microsomes,"pH 7.4, 37 °C, with: fluorescein diacetate",> 100000
CC[C@H](C)[C@H](NC(=O)[C@H](Cc1ccccc1)NC(=O)[C@H](CCCN)NC(=O)[C@H](CCCNC(=N)N)NC(=O)[C@H](Cc1ccccc1)NC(=O)[C@H](Cc1ccccc1)NC(=O)[C@H](CCCN)NC(=O)[C@H](CO)NC(=O)[C@H](CC(C)C)NC(=O)[C@H](CCCNC(=N)N)NC(=O)[C@H](CCSC)NC(=O)[C@H](C)N)C(=O)N[C@@H](CC(C)C)C(=O)N[C@@H](CCC(N)=O)C(=O)N[C@@H](CCCNC(=N)N)C(=O)N[C@@H](CCCCN)C(=O)N[C@@H](CCCCN)C(=O)O,histidine kinase ComD,,"Streptococcus pneumoniae cells, Streptococcus pneumoniae",,> 1000
Fc1ncc(C2CC3CCC2N3)cc1-c1ccncc1 (racemic),"Neuronal acetylcholine receptor; alpha4/beta2 (Rattus norvegicus, UniProt P09483+P12390)","ion current, antagonist, two-electrode voltage clamp",,oocytes,1400
N#Cc1nc(N2CCOCC2)nc(N(Cc2ccc(F)cc2)CC2CCCC2)n1,CPL,"enzyme activity, inhibitor, Z-L-R-AMC hydrolysis fluorescence",,,74
N#Cc1cc(C(=O)c2ccc3ccccc3c2O)c[nH]c1=O,PTGS1,"enzyme activity, inhibitor, ELISA",,,429000
COC(=O)C1CN1S(=O)(=O)c1cccc2ccccc12 (centres unmarked),"P4HB (Homo sapiens, UniProt P07237)","enzyme activity, inhibitor, absorbance",,pH 7.6,1200
CCCC[C@@H]1NC(=O)[C@H](Cc2ccccc2)NC(=O)CNC(=O)[C@H](NC(=O)[C@@H](N)Cc2ccc(O)cc2)C(C)(C)SSC(C)(C)[C@H](C(=O)N[C@@H](Cc2c[nH]c3ccccc23)C(=O)NCc2cc(C(F)(F)F)cc(C(F)(F)F)c2)NC(=O)[C@@H]2CCCN2C1=O,"OPRD1 (Homo sapiens, UniProt P41143)","ligand displacement, radioligand",,cell membranes,1380
N=C(N)NCCC[C@@H](NC(=O)[C@@H](CCCNC(=N)N)NC(=O)[C@@H](CCCNC(=N)N)NC(=O)[C@@H](CCCNC(=N)N)NC(=O)[C@@H](CCCNC(=N)N)NC(=O)[C@@H](CCCNC(=N)N)NC(=O)CCCCCNC(=O)[C@@H](CCCCN)NC(=O)CCCCCNC(=O)[C@H]1O[C@@H](n2cnc3c(N)ncnc32)[C@H](O)[C@@H]1O)C(N)=O,"cGMP-dependent protein kinase 1, isoform alpha (PRKG1, Homo sapiens, UniProt Q13976)",,,,468
COc1cc(OC)c(C(=O)/C=C/c2cccc(OC)c2OC)c(OC)c1,PTGS1,"enzyme activity, inhibitor, ELISA",,,245000
COC(=O)C=CCCC(NC(=O)c1ccncc1C(=O)O)C(=O)NC(C(=O)N1CC(=O)CC1C(=O)NC(C(=O)NC(C(N)=O)C1CCCCC1)C1CCCCC1)C(C)(C)C (centres unmarked),"Protein-glutamine gamma-glutamyltransferase Z (Human, UniProt Q96PF1)","enzyme activity, inhibitor",,,1330
CC[C@@H]1C(=O)N(C)c2cnc(Nc3ccc(C(=O)NCCCC[C@H](NC(=O)[C@@H](NC(=O)[C@H](CO)NC(=O)[C@H](Cc4cncn4CCCCCCCCc4ccccc4)NC(=O)[C@H](CC(C)C)NC(=O)[C@@H]4CCCN4C(C)=O)[C@@H](C)OP(=O)(O)O)C(N)=O)cc3OC)nc2N1C1CCCC1,"ALK (Homo sapiens, UniProt Q9UM73, C1156Y)","enzyme activity, inhibitor",,,8100
C[C@@H]1NC(=O)[C@H](CCC(=O)O)NC(=O)[C@@H]2CSSC[C@H](NC(=O)[C@H](CCCCN)NC(=O)CNC1=O)C(=O)N[C@@H](CO)C(=O)N[C@H]1CSSC[C@H](NC(=O)[C@H](CC(=O)O)NC(=O)[C@@H]3CSSC[C@H](NC(=O)[C@H](Cc4ccc(O)cc4)NC1=O)C(=O)N[C@@H](CC(=O)O)C(=O)N[C@@H](C)C(=O)NCC(=O)N[C@@H](CC(=O)O)C(=O)N3)C(=O)N[C@@H](CCCCN)C(=O)N2,"Lymphocyte function-associated antigen 3 (CD58, Homo sapiens, UniProt P19256)",,human cells,,27 ± 15
COc1cccc(/C=C/C(=O)Cc2ccccc2)c1OC,PTGS1,"enzyme activity, inhibitor, ELISA",,,50000
CC(C)C[C@@H]1NC(=O)[C@H](CCCNC(=N)N)NC(=O)[C@H](C)NC(=O)[C@H](CC(=O)O)NC(=O)[C@H](CCCCN)NC(=O)[C@@H](CO)NC1=O,"Disintegrin and metalloproteinase domain-containing protein 8 (Homo sapiens, UniProt P78325)","enzyme activity, inhibitor, fluorescence",,,165
CC(C)CCN(Cc1cccc(C(F)(F)F)c1)c1nc(C#N)nc(N2CCOCC2)n1,CPL,"enzyme activity, inhibitor, Z-L-R-AMC hydrolysis fluorescence",,,17
COCCNC(P(=O)(O)O)P(=O)(O)O,"Squalene synthase (Homo sapiens, UniProt P37268)","enzyme activity, inhibitor",,,2420
NC(=O)c1cncc(N2CCN(Cc3ccc(Cl)nc3)CC2)n1,"CatSper channel complex (Homo sapiens, UniProt Q7RTX7+Q86XQ3+Q8NEC5+Q96P56)","calcium influx, inhibitor, FLIPR",human sperm,with: 3 µM progesterone,> 100000
CC(C)CCN(Cc1ccccc1[N+](=O)[O-])c1nc(C#N)nc(N2CCOCC2)n1,CPL,"enzyme activity, inhibitor, Z-L-R-AMC hydrolysis fluorescence",,,27
C[C@@H]1CCN(c2nc3ccc(Cl)cc3o2)CCN1S(=O)(=O)c1ccccc1,"HCRTR2 (Homo sapiens, UniProt O43614)","calcium signal, antagonist, fluorescence",,,1520
CC[C@H](C)[C@@H]1NC(=O)[C@H](CC(C)C)NC(=O)[C@@](C)(NC(=O)[C@H](Cc2ccccc2)NC(=O)[C@H](Cc2ccc(O)cc2)NC(=O)[C@H](C)NC(=O)[C@@H](N)[C@@H](C)O)CCCC=CCCC[C@@](C)(C(=O)NCC(=O)N[C@@H](CCCNC(=N)N)C(=O)N[C@@H](Cc2c[nH]c3ccccc23)C(N)=O)NC(=O)[C@H](CC(C)C)NC1=O,"PC4 and SFRS1-interacting protein, with HIV integrase (Homo sapiens, UniProt O75475)","LEDGF/p75-integrase interaction, inhibitor",,,5000
O=C(CCCCCCC(=O)Nc1cccc(N=Nc2ccccc2)c1)NO,HDAC8,"enzyme activity, inhibitor",,trans isomer,125 ± 25
OC[C@@H]1[C@@H](O)[C@H](O)[C@@H](O)[C@@H]2N[C@H]12,"GBA1 (Homo sapiens, UniProt P04062, R534H)","enzyme activity, inhibitor",,"30 min preincubation, pH 5.2, 37 °C, with: 4-MU-β-Glc",304 ± 5
CC[C@H](C)[C@H]1C(=O)O[C@H](C(C)C)C(=O)N(C)[C@@H]([C@@H](C)CC)C(=O)O[C@H](C(C)C)C(=O)N(C)[C@@H]([C@@H](C)CC)C(=O)O[C@H](C(C)C)C(=O)N1C,"HSP90AB1 (Homo sapiens, UniProt P08238)","progesterone receptor hormone-binding recovery, inhibitor, reconstitution with purified chaperones",,5 purified chaperones,7500 to 10000

# For quick reference, copied from above:
Compound,target,test,test system,conditions,IC50 [nM]
Fc1ncc(C2CC3CCC2N3)cc1-c1ccncc1 (racemic),"Neuronal acetylcholine receptor; alpha4/beta2 (Rattus norvegicus, UniProt P09483+P12390)","ion current, antagonist, two-electrode voltage clamp",,oocytes,1400
N#Cc1nc(N2CCOCC2)nc(N(Cc2ccc(F)cc2)CC2CCCC2)n1,CPL,"enzyme activity, inhibitor, Z-L-R-AMC hydrolysis fluorescence",,,74
N#Cc1cc(C(=O)c2ccc3ccccc3c2O)c[nH]c1=O,PTGS1,"enzyme activity, inhibitor, ELISA",,,429000
COC(=O)C1CN1S(=O)(=O)c1cccc2ccccc12 (centres unmarked),"P4HB (Homo sapiens, UniProt P07237)","enzyme activity, inhibitor, absorbance",,pH 7.6,1200
